Assay results gathered from unrelated publications.
A part holds a random share of what one study measured.

Sample 1
Target: RNA binding protein fox-1 homolog 2, RRM domain, GST-SBP tag (RBFOX2, Homo sapiens, UniProt O43251-10, residues 100-194)
Method: RNA Bind-n-Seq
Molecule type: RNA
Sample: in vitro
Concentration: 365 nM
Notes: natural RNA segment, single round, ends assumed
Reference: no-protein control
Direction: higher = stronger binding
Sequence | RBNS enrichment (R)
GGGAGUUCUACAGUCCGACGAUCGGGUAGAGCAAUCUGGGCACUUUGGCCAAUUUUAGUCUUGCUGUUUCUUGAUGCUCACCUCUAUAUUAGUUUAUUGUUAGGAUCAAUGAUAAAUUUAAAUGACCUCAGAUUGGAAUUCUCGGGUGCCAA | 0.629
GGGAGUUCUACAGUCCGACGAUCUCCUCCAUUCUGUGAACUUCCCUGGUGAGAGAAGAAGGAGGACUGGGCAUGAACUGAGGAUUGUAUUGAAGACUGUGGUUUUUAAGCCUCGCUGUAAAGAAAGGCCAUGCUGGAAUUCUCGGGUGCCAA | 1.03
GGGAGUUCUACAGUCCGACGAUCUGUGUUCGUGCGUGUGUGUGCGUACGUGUAUAUAACUGAAGUGUCUGUACGGAAUGCCCUUUGCUAGCCAUGGGCUGGUCACCAGAUUGUUUUGUAAUGCCCGCCCCUUGUGGAAUUCUCGGGUGCCAA | 2.81
GGGAGUUCUACAGUCCGACGAUCACACCCGAUUCCUGCCCAAACAGCUGUAUUUAUAUAAGUCUGUUAUUUAUUAUUAAUUUAUUGGGGUGACCUUCUUGGGGACUCGGGGGCUGGUCUGAUGGAACUGUGUAUGGAAUUCUCGGGUGCCAA | 0.438

Sample 2
Target: RING finger protein unkempt homolog, zinc fingers 1-6, GST-SBP tag (UNK, Homo sapiens, UniProt Q9C0B0, residues 30-357)
Sequence of UniProt Q9C0B0 (30-357, looked up): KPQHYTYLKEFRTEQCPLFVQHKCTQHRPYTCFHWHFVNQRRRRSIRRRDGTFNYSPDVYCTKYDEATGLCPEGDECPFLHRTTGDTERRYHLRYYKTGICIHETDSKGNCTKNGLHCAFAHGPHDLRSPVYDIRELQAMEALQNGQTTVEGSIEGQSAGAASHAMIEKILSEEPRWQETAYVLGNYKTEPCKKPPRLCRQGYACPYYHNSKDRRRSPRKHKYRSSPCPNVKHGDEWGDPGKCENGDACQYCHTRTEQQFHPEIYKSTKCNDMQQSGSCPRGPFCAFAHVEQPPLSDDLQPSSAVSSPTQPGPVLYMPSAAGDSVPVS
Method: RNA Bind-n-Seq
Molecule type: RNA
Sample: in vitro
Concentration: not given
Notes: RNA with constant flanks, human and mouse sites, ends assumed
Reference: input RNA pool
Direction: higher = stronger binding
Shared flanks, not repeated: GGGAGUUCUACAGUCCGACGAUC … CAACAGAGGAUUGAGCAUCA
Sequence | bound/input enrichment [ratio]
UCAGAAGGGCAGCUUGGCCUAGGCCACACCAACCACGUUCGAGAACCAACCCUGGUAACAGUUCUGCAAGGGAAAAACAUCCGCCAGAUUUCAGCGGGCCGUUGCCACAGUGCUGCAUGG | 0.153
AGCACUGAGAGCAGUCCAUCCAUUGCCACAGUAUGUCAUAGUGAGGAAGUCAGGGAGACCUUAGAAAGCAAUACAAACCUUCAUAAUCGCACUGAGACAGAGCAUACUCCAGCAGUUUGU | 0.435
CCAUUUAAAGACCGAGUCACCUGGGCUGGGGACCUUGACAAGAAAGAUGCAUCAAUCAAUAUAGAAAAUAUUCAGGCUGUUCACAAUGGCACCUAUAUCUGCGAUGUCAAAAAUCCUCCU | 1.28
AUUGUUGAAGCUAACCCACUCCUAGAAGCCUUUGGAAAUGCGAAGACUGUUCGCAACAAUAAUAGCAGUCGAUUUGGGAAAUUUGUAGAAAUACAUUUUAAUGAAAAGAGCUCAGUUGUU | 0.84
AAGAUUGAUGACAUUCGUAAGCCUGGAGAAUCUGAAGAAUGAAGACAUUGAGAAAACUAUGUAGCAAGAUCCACUUCUGUGAUUAAGUAAAUGGAUGUCUCGUGAUGCAUCUACAGUUAU | 0.196
GGCCGGAAGGGAUAAAACCGCAGUCGCCGGCCUCGCGGGGCUCACGGCCUCGCCUCGGUAUCGCAGCGGGUCCUCUCUAUCUAGCUCCAGCCUCUCGCCUGCGCCCCACUCCCCGCGUCC | 0.23

Sample 3
Target: Ras GTPase-activating protein-binding protein 1, C-terminal RGG region (G3BP1, Homo sapiens, UniProt Q13283)
Sequence of UniProt Q13283 (whole entry, looked up): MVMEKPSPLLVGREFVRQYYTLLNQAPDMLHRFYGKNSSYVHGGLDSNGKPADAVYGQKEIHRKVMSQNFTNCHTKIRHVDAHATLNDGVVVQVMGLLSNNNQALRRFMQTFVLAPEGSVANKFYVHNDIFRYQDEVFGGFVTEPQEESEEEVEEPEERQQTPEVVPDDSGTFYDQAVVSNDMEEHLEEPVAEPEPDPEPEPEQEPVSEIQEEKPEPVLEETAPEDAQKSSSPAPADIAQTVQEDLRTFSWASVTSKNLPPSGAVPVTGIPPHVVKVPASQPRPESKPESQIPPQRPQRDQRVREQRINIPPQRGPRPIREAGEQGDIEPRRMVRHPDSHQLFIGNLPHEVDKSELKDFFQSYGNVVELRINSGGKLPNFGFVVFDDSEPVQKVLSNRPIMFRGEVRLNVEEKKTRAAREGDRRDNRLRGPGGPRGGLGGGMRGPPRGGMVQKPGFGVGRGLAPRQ
Method: RNA Bind-n-Seq
Molecule type: RNA
Sample: in vitro
Concentration: 1 µM
Notes: whole 134-nt RNA, ends assumed
Together with: 150 mM KCl
Reference: input library
Direction: higher = stronger binding
Shared flanks, not repeated: GGGAGUUCUACAGUCCGACGAUC … UGGAAUUCUCGGGUGUCAAGG
Sequence | log2 enrichment
CUCAAGUCCUGUGCUACACAUCGUAUGUACCGAAUCGGGUGGGUGGGAAAGGGAAAGUAUUAUGUUACGCCGUUCGGAUCUGCACUUCCA | 1.62
GUCCUGUGCUACACAUCGUAUGUACCGAAUCGGGGAAAAAAAGGGGUUUGGGGAGGGGAAAGUAUUAUGUUACGCCGUUCGGAUCUGCAC | 2.55
CCCAUCAUGUUCAGAGGUGAGGUCCGUCUGAAUGUCGAAGAGAAGAAGACUCGAGCUGCCAGGGAAGGCGACCGACGAGAUAAUCGCCUU | -2.17
CACAGACAACACGCACCCACACAGACACAGAGGGAAGGGGUUGGGAUGGGGACAGGGUGCACAGCAGGGCGGGGUAGGACCCCAGCCCCG | -0.853
CCUGUGCUACACAUCGUAUGUACCGAAUCGGGGUUUUUGGGGUUUGGGGUUUUUUUGGGGAAAGUAUUAUGUUACGCCGUUCGGAUCUGC | 1.73

Further values, each from its own experiment
Molecule | target | assay | system | conditions | scale | endpoint | value
PhoQ, residues 284 288 289 292 302 303 SMMNNA | PhoP, residues 12 14 15 18 19 LWHVM (Escherichia coli, UniProt P23836) | Sort-seq, refers to: YFP reporter | E. coli | PhoQ-PhoP variant library, together with: 10 µM Mg2+ | reference: high Mg2+ state, higher = stronger signaling | fold induction | 5.6

Excerpt of the above (sample 1):
Sequence | RBNS enrichment (R)
GGGAGUUCUACAGUCCGACGAUCUGUGUUCGUGCGUGUGUGUGCGUACGUGUAUAUAACUGAAGUGUCUGUACGGAAUGCCCUUUGCUAGCCAUGGGCUGGUCACCAGAUUGUUUUGUAAUGCCCGCCCCUUGUGGAAUUCUCGGGUGCCAA | 2.81
